{"data": "Assay results from different studies", "note": "Parts stem from different laboratories: compare values within a part only. Changes are numbered by the printed parent chain."}
{"data": "Block 1", "target": "Ras GTPase-activating protein-binding protein 1, C-terminal RGG region (G3BP1, Homo sapiens, UniProt Q13283)", "method": "RNA Bind-n-Seq", "molecule type": "RNA", "medium": "in vitro", "tested at": "1 µM", "notes": "whole 134-nt RNA, ends assumed", "with": "150 mM KCl", "relative to": "input library", "direction": "higher = stronger binding", "constant ends, left off below": "GGGAGUUCUACAGUCCGACGAUC … UGGAAUUCUCGGGUGUCAAGG", "sequence of UniProt Q13283 (whole entry, looked up)": "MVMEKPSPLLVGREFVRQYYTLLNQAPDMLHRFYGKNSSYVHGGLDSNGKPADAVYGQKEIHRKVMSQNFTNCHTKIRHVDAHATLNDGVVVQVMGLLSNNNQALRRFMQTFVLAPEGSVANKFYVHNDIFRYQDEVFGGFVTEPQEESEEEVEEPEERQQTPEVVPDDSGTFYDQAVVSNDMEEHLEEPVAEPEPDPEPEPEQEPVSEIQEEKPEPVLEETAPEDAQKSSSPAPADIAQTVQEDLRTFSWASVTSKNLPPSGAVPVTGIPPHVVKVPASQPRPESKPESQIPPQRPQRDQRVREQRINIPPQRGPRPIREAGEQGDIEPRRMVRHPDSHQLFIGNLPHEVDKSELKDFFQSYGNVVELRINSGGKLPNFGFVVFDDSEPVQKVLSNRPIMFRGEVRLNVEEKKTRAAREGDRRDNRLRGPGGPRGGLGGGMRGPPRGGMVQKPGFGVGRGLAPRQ"}
{"Sequence": "AAGUCCUGUGCUACACAUCGUAUGUACCGAAUCGGAAAAAGGGAAAAAGGAAAAAGGAAAGUAUUAUGUUACGCCGUUCGGAUCUGCACU", "log2 enrichment": -1.91}
{"Sequence": "AAGUCCUGUGCUACACAUCGUAUGUACCGAAUCGGGGUUUGGGGUUUGGUUUGGGGAAAGUAUUAUGUUACGCCGUUCGGAUCUGCACUU", "log2 enrichment": -0.608}
{"Sequence": "UGGCCCUGGUGGAAUGCGGGGAGGAAGAGGUGGCCUCAUGGAUCGUGGUGGUCCCGGUGGAAUGUUCAGAGGUGGCCGUGGUGGAGACAG", "log2 enrichment": 1.83}
{"Sequence": "UCAAGUCCUGUGCUACACAUCGUAUGUACCGAAUCGGUUUUUGGUUUGGAAAGGAAAGUAUUAUGUUACGCCGUUCGGAUCUGCACUUCC", "log2 enrichment": -1.35}
{"Sequence": "UCAAGUCCUGUGCUACACAUCGUAUGUACCGAAUCGGGAAAGGGAAAGGGUGGGAAAGUAUUAUGUUACGCCGUUCGGAUCUGCACUUCC", "log2 enrichment": 1.62}
{"Sequence": "UCCUCAAGUCCUGUGCUACACAUCGUAUGUACCGAAUCGGGAGGAGGAGGGAAAGUAUUAUGUUACGCCGUUCGGAUCUGCACUUCCAGC", "log2 enrichment": -1.18}
{"Sequence": "AAGUCCUGUGCUACACAUCGUAUGUACCGAAUCGGGGUGGGGAGGGGUUUUUGGGGAAAGUAUUAUGUUACGCCGUUCGGAUCUGCACUU", "log2 enrichment": 2.04}
{"Sequence": "AGUCCUGUGCUACACAUCGUAUGUACCGAAUCGGCCCCCGGGCCCCCGGGGCCCCCGGAAAGUAUUAUGUUACGCCGUUCGGAUCUGCAC", "log2 enrichment": -2.01}
{"Sequence": "UCCUGUGCUACACAUCGUAUGUACCGAAUCGGCCCCCCGGGGCCCCCCGGCCCCCCGGGGAAAGUAUUAUGUUACGCCGUUCGGAUCUGC", "log2 enrichment": -1.41}
{"data": "Block 2", "target": "ABI1, truncated, D143A, DHFR fusion (Arabidopsis thaliana)", "method": "DHFR PCA, deep sequencing", "medium": "yeast", "notes": "methotrexate growth selection, single substitutions", "with": "(+)-ABA 2500 µM", "relative to": "wild-type fitted maximum", "direction": "higher = stronger binding", "starting sequence": "PYL1, truncated, DHFR fusion (Arabidopsis thaliana); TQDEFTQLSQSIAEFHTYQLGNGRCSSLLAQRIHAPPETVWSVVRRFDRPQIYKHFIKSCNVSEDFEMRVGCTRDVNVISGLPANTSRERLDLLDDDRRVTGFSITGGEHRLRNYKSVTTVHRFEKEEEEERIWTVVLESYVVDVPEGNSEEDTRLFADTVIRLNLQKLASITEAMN; partner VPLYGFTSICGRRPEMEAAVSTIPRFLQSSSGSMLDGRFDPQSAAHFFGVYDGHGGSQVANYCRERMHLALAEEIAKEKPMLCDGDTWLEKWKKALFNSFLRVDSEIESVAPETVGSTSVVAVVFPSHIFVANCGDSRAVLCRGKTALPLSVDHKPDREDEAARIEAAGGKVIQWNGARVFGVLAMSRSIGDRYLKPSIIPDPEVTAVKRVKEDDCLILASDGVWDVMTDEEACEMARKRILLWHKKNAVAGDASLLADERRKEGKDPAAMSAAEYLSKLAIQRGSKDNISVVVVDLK"}
{"Variant": "V118Y", "relative binding score": "92.1%"}
{"Variant": "E174T", "relative binding score": "93.9%"}
{"Variant": "N61Q", "relative binding score": "105%"}
{"Variant": "L166D", "relative binding score": "4.76%"}
{"Variant": "L29W", "relative binding score": "67.3%"}
{"Variant": "V43D", "relative binding score": "26%"}
{"Variant": "I12Y", "relative binding score": "89%"}
{"Variant": "N165E", "relative binding score": "18.5%"}
{"Variant": "S27M", "relative binding score": "88.9%"}
{"Variant": "T1K", "relative binding score": "99.4%"}
{"Variant": "V121M", "relative binding score": "84.9%"}
{"Variant": "D65P", "relative binding score": "101%"}
{"Variant": "D75M", "relative binding score": "101%"}
{"Variant": "V78A", "relative binding score": "85%"}
{"data": "Block 3", "target": "CCND2, cyclin fold, Cln2 fusion (human)", "method": "yeast growth competition, sequencing", "medium": "yeast", "notes": "weak parent motif", "relative to": "not given", "direction": "higher = stronger binding", "starting sequence": "MICAL3 docking peptide (human); LQLRRQLSFSEDS; partner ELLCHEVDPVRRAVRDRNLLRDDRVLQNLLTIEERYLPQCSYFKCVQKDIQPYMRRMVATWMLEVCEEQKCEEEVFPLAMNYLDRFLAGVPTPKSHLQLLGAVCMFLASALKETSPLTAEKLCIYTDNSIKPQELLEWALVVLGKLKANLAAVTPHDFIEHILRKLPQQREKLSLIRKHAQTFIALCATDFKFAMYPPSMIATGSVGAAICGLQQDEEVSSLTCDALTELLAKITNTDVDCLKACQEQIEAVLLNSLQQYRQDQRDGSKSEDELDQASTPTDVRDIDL"}
{"Variant": "LQLYRQLSFSEDS [R4Y]", "normalised enrichment score": 0.282}
{"Variant": "LQLRRQLSFAEDS [S10A]", "normalised enrichment score": 0.288}
{"Variant": "LQLRRQLSCSEDS [F9C]", "normalised enrichment score": 0.121}
{"Variant": "LQLRRCLSFSEDS [Q6C]", "normalised enrichment score": 0.433}
{"Variant": "LQLRRMLSFSEDS [Q6M]", "normalised enrichment score": 0.247}
{"Variant": "LHLRRQLSFSEDS [Q2H]", "normalised enrichment score": 0.0967}
{"Variant": "LQLRRQLSFSYDS [E11Y]", "normalised enrichment score": 0.16}
{"Variant": "LQLRRQLSFSEAS [D12A]", "normalised enrichment score": 0.103}
{"Variant": "LQLRRQLSFSEVS [D12V]", "normalised enrichment score": 0.256}
{"Variant": "LQLRRELSFSEDS [Q6E]", "normalised enrichment score": 0.651}
{"Variant": "LQLRNQLSFSEDS [R5N]", "normalised enrichment score": 0.6}
{"Variant": "LYLRRQLSFSEDS [Q2Y]", "normalised enrichment score": 0.175}
{"data": "Further values, each from its own experiment"}
{"Molecule": "PhoQ, residues 284 288 289 292 302 303 MLMVEA", "target": "PhoP, residues 12 14 15 18 19 SEGLL (Escherichia coli, UniProt P23836)", "assay": "Sort-seq, refers to: YFP reporter", "system": "E. coli", "setting": "PhoQ-PhoP variant library, with: 10 µM Mg2+", "how to read": "relative to: high Mg2+ state, higher = stronger signaling", "endpoint": "fold induction", "result": 18.5}
{"note": "A few entries again (block 2):"}
{"Variant": "D65P", "relative binding score": "101%"}
{"Variant": "V43D", "relative binding score": "26%"}
{"Variant": "V118Y", "relative binding score": "92.1%"}
